Measured values pooled from the literature.
Lines come from different studies, so protocols differ. Values joined by “and” are separate records of one study, mostly repeats; a detail may differ. Numbers after ± are the reported error.
Cell line: RAW264.7

SMILES	assay	system	conditions	scale	quantity	result
CC#CC#C/C=C1/O[C@@]2(CCCCO2)[C@@H](O)[C@@H]1OC(C)=O	MTT	DMEM with 10% FBS	50 µM, 18 h, with: LPS 1 µg/mL	relative to: DMSO	viability	94.3 ± 6.8%
C/C=C(/NC(=O)CCCCCCC)C(=O)N/C(=C/C)C(=O)N[C@@H](C(=O)N[C@@H](CC(C)C)C(=O)Nc1ccc(C(=O)N[C@H](C(=O)O)[C@@H](C)O)cc1)[C@@H](O)C(C)C	cytotoxicity, MTT				IC50	94 ± 4 µM
COC1OC(C)C(OC2OC(C)C(O)C(OC3OC(C)C(OC4OC(C)C(O)C(OC5OC(C)C(OC6OC(C)C(O)C(OC7OC(C)C(OC8OC(C)C(O)C(OS(=O)(=O)O)C8OS(=O)(=O)O)C(OS(=O)(=O)O)C7OS(=O)(=O)O)C6OS(=O)(=O)O)C(OS(=O)(=O)O)C5OS(=O)(=O)O)C4OS(=O)(=O)O)C(OS(=O)(=O)O)C3OS(=O)(=O)O)C2OS(=O)(=O)O)C(OS(=O)(=O)O)C1OS(=O)(=O)O (stereo not shown)	CCK-8		concentration not given, 24 h, high concentration	relative to: untreated cells	viability	82.5% and 93.6% and 79.3%
CC#CC#C/C=C1/O[C@@]2(CCCCO2)[C@@H](OC(C)=O)[C@@H]1O	MTT	DMEM with 10% FBS	50 µM, 18 h, with: LPS 1 µg/mL	relative to: DMSO	viability	91.6 ± 8.2%
COc1cc2c(cc1OC)[C@@H]1C(=O)c3c(O)cc4c(c3O[C@@H]1CO2)C=CC(C)(C)O4	cell growth or viability, MTT		100 µg/mL, 24 h		viability	96.3%
COC1OC(C)C(OC2OC(C)C(OS(=O)(=O)O)C(OC3OC(C)C(OC4OC(C)C(OS(=O)(=O)O)C(OC5OC(C)C(OC6OC(C)C(OS(=O)(=O)O)C(OC7OC(C)C(OS(=O)(=O)O)C(OS(=O)(=O)O)C7OS(=O)(=O)O)C6OS(=O)(=O)O)C(OS(=O)(=O)O)C5OS(=O)(=O)O)C4OS(=O)(=O)O)C(OS(=O)(=O)O)C3OS(=O)(=O)O)C2OS(=O)(=O)O)C(OS(=O)(=O)O)C1OS(=O)(=O)O (stereo not shown)	CCK-8		concentration not given, 24 h, low concentration	relative to: untreated cells	viability	111% and 124% and 104%
C/C=C(/NC(=O)CCCCCCC)C(=O)N/C(=C/C)C(=O)N[C@@H](C(=O)N[C@H](C(=O)Nc1ccc(C(=O)N[C@H](C(=O)O)[C@@H](C)O)cc1)C(C)C)[C@@H](O)C(C)C	cytotoxicity, MTT				IC50	48.7 ± 3.2 µM
CC#CC#C/C=C1/O[C@@]2(CC[C@@H](O)CO2)[C@H](O)[C@H]1OC(C)=O	MTT	DMEM with 10% FBS	50 µM, 18 h, with: LPS 1 µg/mL	relative to: DMSO	viability	90.9 ± 14.8%
C/C=C(/NC(=O)CCCCCCC)C(=O)N/C(=C/C)C(=O)N[C@H](CC(C)C)C(=O)N[C@@H](CC(C)C)C(=O)Nc1ccc(C(=O)N[C@H](C(=O)O)[C@@H](C)O)cc1	cytotoxicity, MTT				IC50	> 100 µM
COC1OC(C)C(OS(=O)(=O)O)C(OC2OC(C)C(OS(=O)(=O)O)C(OC3OC(C)C(OS(=O)(=O)O)C(OC4OC(C)C(OS(=O)(=O)O)C(OC5OC(C)C(OS(=O)(=O)O)C(OC6OC(C)C(OS(=O)(=O)O)C(OC7OC(C)C(OS(=O)(=O)O)C(OC8OC(C)C(OS(=O)(=O)O)C(OS(=O)(=O)O)C8OS(=O)(=O)O)C7OS(=O)(=O)O)C6OS(=O)(=O)O)C5OS(=O)(=O)O)C4OS(=O)(=O)O)C3OS(=O)(=O)O)C2OS(=O)(=O)O)C1OS(=O)(=O)O (stereo not shown)	CCK-8		concentration not given, 24 h, high concentration	relative to: untreated cells	viability	102% and 106% and 101%
CC#CC#C/C=C1/O[C@@]2(CC[C@@H](OC(C)=O)CO2)[C@H](O)[C@H]1O	MTT	DMEM with 10% FBS	50 µM, 18 h, with: LPS 1 µg/mL	relative to: DMSO	viability	93.4 ± 11.8%
COC1OC(C)C(OS(=O)(=O)O)C(OC2OC(C)C(OS(=O)(=O)O)C(OC3OC(C)C(OS(=O)(=O)O)C(OC4OC(C)C(OS(=O)(=O)O)C(OC5OC(C)C(OS(=O)(=O)O)C(OC6OC(C)C(OS(=O)(=O)O)C(OC7OC(C)C(OS(=O)(=O)O)C(OC8OC(C)C(OS(=O)(=O)O)C(OC9OC(C)C(OS(=O)(=O)O)C(OC%10OC(C)C(OS(=O)(=O)O)C(OS(=O)(=O)O)C%10OS(=O)(=O)O)C9OS(=O)(=O)O)C8OS(=O)(=O)O)C7OS(=O)(=O)O)C6OS(=O)(=O)O)C5OS(=O)(=O)O)C4OS(=O)(=O)O)C3OS(=O)(=O)O)C2OS(=O)(=O)O)C1OS(=O)(=O)O (stereo not shown)	CCK-8		concentration not given, 24 h, high concentration	relative to: untreated cells	viability	111% and 128% and 108%
C=C(C)[C@H]1Cc2c(cc(O)c3c2O[C@@H]2COc4cc(OC)c(OC)cc4[C@@H]2C3=O)O1	cell growth or viability, MTT		100 µg/mL, 24 h		viability	99.5%

Excerpt of the above:
SMILES	assay	system	conditions	scale	quantity	result
COC1OC(C)C(OS(=O)(=O)O)C(OC2OC(C)C(OS(=O)(=O)O)C(OC3OC(C)C(OS(=O)(=O)O)C(OC4OC(C)C(OS(=O)(=O)O)C(OC5OC(C)C(OS(=O)(=O)O)C(OC6OC(C)C(OS(=O)(=O)O)C(OC7OC(C)C(OS(=O)(=O)O)C(OC8OC(C)C(OS(=O)(=O)O)C(OC9OC(C)C(OS(=O)(=O)O)C(OC%10OC(C)C(OS(=O)(=O)O)C(OS(=O)(=O)O)C%10OS(=O)(=O)O)C9OS(=O)(=O)O)C8OS(=O)(=O)O)C7OS(=O)(=O)O)C6OS(=O)(=O)O)C5OS(=O)(=O)O)C4OS(=O)(=O)O)C3OS(=O)(=O)O)C2OS(=O)(=O)O)C1OS(=O)(=O)O (stereo not shown)	CCK-8		concentration not given, 24 h, high concentration	relative to: untreated cells	viability	111% and 128% and 108%
C=C(C)[C@H]1Cc2c(cc(O)c3c2O[C@@H]2COc4cc(OC)c(OC)cc4[C@@H]2C3=O)O1	cell growth or viability, MTT		100 µg/mL, 24 h		viability	99.5%
